Experimental data gathered from unrelated publications.
A part holds a random share of what one study measured.

Block 1
Target: RNA binding protein fox-1 homolog 2, RRM domain, GST-SBP tag (RBFOX2, Homo sapiens, UniProt O43251-10, residues 100-194)
Method: RNA Bind-n-Seq
Molecule type: RNA
Medium: in vitro
Tested at: 365 nM
Setting: natural RNA segment, single round, ends assumed
Baseline: no-protein control
Reading: higher = stronger binding
Shared flanks, not repeated: GGGAGUUCUACAGUCCGACGAUC … UGGAAUUCUCGGGUGCCAA
Residues (chain): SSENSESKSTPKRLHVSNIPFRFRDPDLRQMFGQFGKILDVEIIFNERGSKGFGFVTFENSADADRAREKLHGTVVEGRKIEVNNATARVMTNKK
| Oligonucleotide | RBNS enrichment (R) |
| --- | --- |
| UCUUGUGAGCAGAUGUACCUGAAGGAUUCUGCUGUUCCAUGAGGGUCUGGCUCUCAGGCUGUAGGCAGUGAUGGGGCAGCACAAGGCUGGAUAAAUCCCUUCCCUAUUGA | 0.407 |
| UCGUGUCUGCCUGCGGGCUCCUGAGGGUCCACAGCUGAGCUGAUCCAUCUUUCCCUCAAGUGACCGUAUCUAGUGACAGGAAGGGAGAACCCUACAGUAGAUCCCUCUGC | 0.262 |
| UGUCAGAAUGGCACUAGUUCAGUUUAUGUCCCUUCUGAUAUAGUAGCUUAUUUGACAGCUUUGCUCUUCCUUAAAAUAAAAACAGAAAAAUAUAUCGUCCUAACAGUUAA | 0.376 |
| UGGCCCCACCCUGGGCCCUGGGCUGGAAUCAGGAAUAUUUUCCAAAGAGUGAUAGUCUUUUGCUUUUGGCAAAACUCUACUUAAUCCAAUGGGUUUUUCCCUGUACAGUA | 0.3 |
| GUGCAAUGUAUGAAAAUCAAGUGUUAGGAAAUUUCAUGGUUUCACCUAUAACCUUUAUUUUAGAAUUGAACUAUGAUUAGAUUGUAUCUAAACCUGAAGUAUAAUUAUAU | 0.52 |
| GCGCAUUGCUGUCUGUGCCUGUGUUGUGCACAGCCACAGUUAGUAACUGGGGAAGCUUCUGUACUAGUCUCCUUCAACGCAGCUGGCUUUGACUGAGUGCUUUGACAGUU | 0.202 |
| GAGCUUCAUCUUUCCAGAAUGAGCAAAACACUGUCCAGUCUUUGUUACGAUUUUGUAAUAAAUGUGUACAUUUUUUUUAAAUUUUUGGACAUCACAUGAAUAAAGGUAUG | 0.341 |
| UGAUGGGACCAACUUGUAAAGUAUGAGCCUUAAAUAAAUCUCCAUGCUGAAAAAUGUGUUCUAAUGCAACACAAAAACAUGAAGUGACUGCCCAGAGGUAGAGUUAGUGU | 0.344 |
| GGGUUACUCCUCCUCCAAUGGGACUCAAGGACUUGACCUCCAGGAGUAGGCCCCUGGUCAGAAGUGCCAUCUCACCAGUGGUCUUCAUUCUUCCUCAUUCAUUCUUUAUC | 0.393 |
| UCCCUGAAAGUUGGCCCUUGGUGUCUAGUGGAGAAAAGUAGGCAUCUCCCAUCUGCUCACAGUAGCACCUCAGACUCCUAUGUCCCAAUGGCAGCAACAAUUUUGCCAUU | 0.435 |
| UACAGUGAUAUUGGUCCAGUUCCUCCUGACUCUUCACUCUACCACCCAAAAGUCAAUGUAGACCUACGAAACGGUCAGGUGAUGGGCUAGGGACGUAUCUUCAAACUCCA | 0.31 |
| AGAGGGGCUACACUAGCCCACCCCAUUUAGAGUGGUCCUGUCUACUCUACAGCAACUCUCUUGGGCUCUCAGCUCUUGCUUACACUGCUUCCUUUCUGGCCUCUAUGGUG | 0.33 |

Block 2
Target: RING finger protein unkempt homolog, zinc fingers 1-6, GST-SBP tag (UNK, Homo sapiens, UniProt Q9C0B0, residues 30-357)
UniProt Q9C0B0, sequence (30-357, looked up): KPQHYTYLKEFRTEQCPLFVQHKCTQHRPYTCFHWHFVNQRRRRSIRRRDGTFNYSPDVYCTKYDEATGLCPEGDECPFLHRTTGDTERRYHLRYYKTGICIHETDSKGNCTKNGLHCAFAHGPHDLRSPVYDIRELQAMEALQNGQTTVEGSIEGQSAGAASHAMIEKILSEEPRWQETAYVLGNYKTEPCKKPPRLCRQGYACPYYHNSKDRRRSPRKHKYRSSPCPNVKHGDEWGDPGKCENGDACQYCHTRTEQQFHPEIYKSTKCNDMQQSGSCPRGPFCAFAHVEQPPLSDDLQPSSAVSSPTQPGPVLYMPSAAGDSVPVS
Method: RNA Bind-n-Seq
Molecule type: RNA
Medium: in vitro
Tested at: not given
Setting: RNA with constant flanks, human and mouse sites, ends assumed
Baseline: input RNA pool
Reading: higher = stronger binding
Shared flanks, not repeated: GGGAGUUCUACAGUCCGACGAUC … CAACAGAGGAUUGAGCAUCA
| Oligonucleotide | bound/input enrichment [ratio] |
| --- | --- |
| GUAUUGAUAACAGAACAUGGCGACUUGGGAAAUGGAAAGUUUUUGGAUCCAAAGAACAGAAUCUGUUUUAAAUUUGAUCACUUAAGGAAGGAGGCAACUGAUCCAAGACCCUGUGAAGUA | 0.247 |
| GAUAAGAAAAGCUUGUUGGAGACCCGCUUGCAUGUCACUGGUAGAGACCUGAGGUGUCAAAUAGCUGAAACUUUCGGAUUUCAAGAAAAUUACAUCAAGAUCGUAAUAAAUAAGAAACAG | 0.294 |
| AAGAAAAUGCAUAUACAAAGUGCUGUGUCCAAAAUGAACCCUGGGGAGAAAGAACCCAUUCAUAGAGGAACUACUGAAGUGAAUAUAGAUUCUGAAACUGUUCAUAGAAUGUUACUGAGU | 0.246 |
| CAGAGAGCUUGACCAAGUUACAUAUUCUAGAGAUCGUCCUGAGUGCCAAGCACGUUUAUAAGUAGGGCGUGUAUUCCAGUCCUUUCUGUCAUUCUGUGUGUGUGUGUGUGUGCACUUAUG | 0.409 |
| GCUGUAGUUUAUUUUCUAAAGAUGCCAAAGGAAACAAGAUUUUUCUUUAUUUAUUUUAAAUACCUGAAACCUCGUACUUUAUAUUUUGAAGUAAGGUGGGAUUGUGUGAAAAUGUGGAUG | 1.43 |
| UUCUCCUCAUUAUUUAAAAAUGCUAAACCUUGUAUCUCACUUUUUCUCUAACACUGAUUUAAUAGCUAACGAGGUAGAAGCAACAUUCAUUCUCCUGGUCUUACAUAUGAAUUUAAGUAU | 0.485 |
| ACAUUUCAGGUUUUUCAAGAAGAAUUUGGAGUAAUUAAAUCCUAUAACUUAAAACCAGGGGGUGAUAAGAUUCCAGUUACCAAUCAGAAUAGAAGAGAGUAUGUACAGCUUUAUACUGAC | 0.344 |
| GCUCCAGCUGCCAACGCUGCGGAACCUAAGUCCGAUGGCGUUCUCGCCAUGACUUUUAAGAUUUUCCUUCUUUUUGCAGGACUUAUGGUUAAAGUGCCAGUGGGGCUGUAUUUUUCCUGU | 0.197 |
| CCAUCACAAAGAACCAAUGGCUCGUAACACCCAGCAGGGAAUAUGCUACCAAGACAAGAAUUAGGACUCACCGUGGGAAAACUGGACAAGAACUGAAAGAGGCAGCCUUGGAACCAUCAA | 0.307 |
| AGUAGUUUUAAGCUUGUUUGCACAGUUCUUUUUUUCCAUUGGAAAUGGAAUUCAUUGCCUUAGGUCUUUUUAAAUAGUGUAUUAUUAUCGUUGGGGCUGGCUCUAUGCUUGAAAACCAGU | 31.6 |
| AAAGUCUUUGGAGGCACUGUGCAUAAAAAAAGUGUUAGAGAGGAUGGAGUUUUCAACAUUAGUAUGGAUAAUACGUGUUCAUUAUUCAGGGGCCUGCAGAAGGAAGAAAUUGUUUUACUU | 0.555 |

Block 3
Target: Histone acetyltransferase KAT6A, winged helix 1, GST fusion (KAT6A, Homo sapiens, UniProt Q92794, residues 1-85)
Method: protein binding microarray
Molecule type: double-stranded DNA, one strand shown
Medium: in vitro
Tested at: not given
Setting: 8-mer, flanks averaged, mean of 2 arrays, mostly near background
Baseline: not given
Reading: higher = stronger binding
Residues (chain): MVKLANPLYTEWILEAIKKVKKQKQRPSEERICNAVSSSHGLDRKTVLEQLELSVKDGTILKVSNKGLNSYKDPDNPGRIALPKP
| Oligonucleotide | E-score |
| --- | --- |
| CGATTATC | 0.0692 |
| CGCCGGTA | 0.437 |
| ATCAAGTC | -0.0546 |
| CTGTTTTA | -0.108 |
| GGGGTTAA | -0.0516 |
| GACATGTA | -0.0178 |
| AATAAGGG | -0.213 |
| ATATTTGA | -0.081 |
| ATCTTCCG | 0.113 |
| AAGCGCAG | 0.244 |
| CGATGACA | 0.0157 |
| CTATCTCC | -0.139 |
| TGCGAGAA | -0.202 |
| AATCGAGA | -0.128 |
| CCAGCGGA | 0.204 |
| GAATAGGC | -0.146 |
| AGCTCGTA | -0.196 |
| ATAGTACA | -0.0591 |

Block 4
Target: Sal-like protein 4, full length isoform A (SALL4, Homo sapiens, UniProt Q9UJQ4, residues 1-1053)
UniProt Q9UJQ4, sequence (whole entry, looked up): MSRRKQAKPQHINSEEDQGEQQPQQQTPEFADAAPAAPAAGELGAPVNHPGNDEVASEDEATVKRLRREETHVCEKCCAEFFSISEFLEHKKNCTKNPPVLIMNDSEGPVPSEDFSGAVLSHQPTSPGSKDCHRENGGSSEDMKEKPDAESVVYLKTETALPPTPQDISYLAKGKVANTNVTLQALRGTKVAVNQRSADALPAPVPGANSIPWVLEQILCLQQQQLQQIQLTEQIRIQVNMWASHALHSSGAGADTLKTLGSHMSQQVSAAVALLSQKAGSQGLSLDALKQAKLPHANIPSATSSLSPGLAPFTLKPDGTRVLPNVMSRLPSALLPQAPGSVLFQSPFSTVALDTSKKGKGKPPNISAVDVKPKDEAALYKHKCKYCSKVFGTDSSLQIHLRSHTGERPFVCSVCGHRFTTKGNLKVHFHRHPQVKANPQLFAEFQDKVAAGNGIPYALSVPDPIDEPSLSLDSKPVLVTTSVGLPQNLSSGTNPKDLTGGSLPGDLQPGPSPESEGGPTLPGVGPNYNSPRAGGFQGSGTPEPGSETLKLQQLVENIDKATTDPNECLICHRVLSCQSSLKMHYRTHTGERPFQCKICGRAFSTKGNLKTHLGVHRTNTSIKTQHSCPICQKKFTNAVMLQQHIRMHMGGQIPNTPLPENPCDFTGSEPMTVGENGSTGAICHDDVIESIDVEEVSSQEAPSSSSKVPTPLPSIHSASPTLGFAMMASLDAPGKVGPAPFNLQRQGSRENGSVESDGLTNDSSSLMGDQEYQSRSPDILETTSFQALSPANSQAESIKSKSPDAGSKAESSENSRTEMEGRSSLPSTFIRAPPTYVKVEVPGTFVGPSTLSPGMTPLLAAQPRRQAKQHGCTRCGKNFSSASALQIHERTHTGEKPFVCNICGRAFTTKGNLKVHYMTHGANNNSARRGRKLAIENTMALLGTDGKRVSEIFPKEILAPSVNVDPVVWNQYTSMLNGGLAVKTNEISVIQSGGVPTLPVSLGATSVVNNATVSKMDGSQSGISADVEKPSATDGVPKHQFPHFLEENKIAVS
Method: universal PBM
Molecule type: double-stranded DNA, one strand shown
Medium: in vitro
Tested at: 600 nM
Setting: 8-mer, flanks averaged, mean of replicates
Reading: higher = stronger binding
| Oligonucleotide | E-score |
| --- | --- |
| ATGATGGA | 0.109 |
| AACACGCC | -0.197 |
| ATTACACA | 0.306 |
| ACTTACCT | 0.0519 |
| TACAGGAA | 0.0657 |
| GACCGCTA | -0.194 |
| CGAGATCA | -0.115 |
| CGTAGACC | -0.203 |
| GGATCACA | 0.0305 |
| TCATTAAA | 0.311 |
| ATTTGCGA | 0.261 |
| AACGCTGG | -0.218 |
| CGTGCCAA | -0.233 |
| AGTACCCA | -0.106 |
| ACGAGCAG | -0.0571 |
| AAGTCAGG | -0.0654 |
| AGATGAGA | -0.00417 |

Block 5
Target: Centromere-binding protein 1, full length, His-tagged (CBF1, Saccharomyces cerevisiae, UniProt P17106, residues 1-351)
UniProt P17106, sequence (whole entry, looked up): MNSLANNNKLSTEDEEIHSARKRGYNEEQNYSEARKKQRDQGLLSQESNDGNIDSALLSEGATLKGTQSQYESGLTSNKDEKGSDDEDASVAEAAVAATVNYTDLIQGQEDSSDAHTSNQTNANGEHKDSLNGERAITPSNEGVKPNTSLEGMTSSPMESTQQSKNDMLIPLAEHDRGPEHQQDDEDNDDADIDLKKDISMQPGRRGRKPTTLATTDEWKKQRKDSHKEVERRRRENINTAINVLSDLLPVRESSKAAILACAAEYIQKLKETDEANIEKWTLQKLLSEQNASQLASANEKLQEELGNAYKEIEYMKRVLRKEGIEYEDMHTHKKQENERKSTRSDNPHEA
Method: competition protein-binding microarray
Molecule type: double-stranded DNA, one strand shown
Medium: in vitro
Tested at: 2 µM
Setting: whole 60-bp probe, lowest competitor level
Added: Pho4 competitor, 0.05 µM
Reading: higher = stronger binding
Shared flanks, not repeated: … GTCTTGATTCGCTTGACGCTGCTG
| Oligonucleotide | fluorescence intensity [a.u.] |
| --- | --- |
| AAATTACTAAGTTGTCACTAAACTTACCCCGTATGA | 64.5 |
| CGTCCTAGCGATTGAGTCGTGGGTGCCATGAGGAAG | 74.3 |
| CATACCCAACCTTTTCACGTGCCTTAAGATATTTGT | 1180 |
| CCTTGAAGCCCGGCGGACGTGTCTGCCGGACCGAAA | 42.8 |
| TTCCAGTGTTTCTTATCCGTGATGGTTTAATGGTCA | 85.1 |
| AAAGCGGTAATTTGCCAAGTGGGTGCAGATATCTAT | 72.3 |
| CGTCCTAGTGATTGTCACGGAACTTCCATGAGGAAG | 92.2 |
| CTAACGAAGGTTTGATCGGTGGGTGACAAGCCAAGT | 65.1 |
| AACCATCCCAAACACAAAGCAATCTTTACTCTACTT | 65.8 |
| ATTTCGGGGCGGGTCCCCGTGGTGACGCTGGTGACG | 72.6 |
| CTAACGAAGGTTTGCGCTGTGGGTGACAAGCCAAGT | 66.2 |
| TGTAAATTTTTTTCAGCCACTTTATCGGCACTGGAA | 81.4 |
| CTGGGAAAACATCACCACGTCTCAAAGAACCTGCAA | 59.8 |
| AATACACACAACTCAAACGTGTATAAACGACTTTAT | 97.5 |
| CTATAATGATTCTGTCGCGTGGAACGGTTTTCCATG | 94.9 |
| CATACCCAACCTTGAAGCGTGGGTGAAGATATTTGT | 77.8 |
| GAACAATGGAATAAGCTCGTGAGATTCCTTAACTTT | 84.1 |
| CTTTCCCGATCTTGGTCAGTGGGTGTAGCACATTTG | 64.2 |
| TGCGCAACAACTTTTCACGTGCAGTTATGTCTAGAA | 1140 |
| ATTATTTCTATCGGCCACGTGTTGATTGGGCTTAAT | 862 |
| CATACCCAACCTTTTCACGTGATCTAAGATATTTGT | 6580 |
| AAAGCGGTAATTTGGAGAGTGGGTGCAGATATCTAT | 76.1 |
| GATTCCTCATCTCGTCAGGTGATATTTGCATTCTAT | 974 |
| CATACCCAACCTTGTCTCGTGGGTGAAGATATTTGT | 109 |
| CGGGGTTAAGTTTGGCGAGTGGGTGGCTTGCAGCAG | 68 |
